{"data": "Assay results of several laboratories", "note": "Numbered parts are unrelated; each lists some results of a single study. Several values in a cell are separate wells, animals, samples, runs or records.", "UniProt O95747, sequence (whole entry, looked up)": "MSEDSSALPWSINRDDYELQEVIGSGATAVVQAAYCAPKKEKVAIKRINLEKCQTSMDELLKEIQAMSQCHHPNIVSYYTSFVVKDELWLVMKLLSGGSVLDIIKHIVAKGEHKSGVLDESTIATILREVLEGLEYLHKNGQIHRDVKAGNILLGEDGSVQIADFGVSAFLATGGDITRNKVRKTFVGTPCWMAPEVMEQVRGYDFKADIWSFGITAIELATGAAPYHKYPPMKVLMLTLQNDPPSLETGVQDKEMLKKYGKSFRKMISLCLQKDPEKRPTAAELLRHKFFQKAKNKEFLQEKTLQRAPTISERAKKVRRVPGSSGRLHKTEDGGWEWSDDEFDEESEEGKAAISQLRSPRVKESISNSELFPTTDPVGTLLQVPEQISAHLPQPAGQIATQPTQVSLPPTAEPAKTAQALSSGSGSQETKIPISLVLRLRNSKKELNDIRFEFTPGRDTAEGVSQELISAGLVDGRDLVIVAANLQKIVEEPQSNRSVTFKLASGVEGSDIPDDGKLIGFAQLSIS", "UniProt Q12852, sequence (whole entry, looked up)": "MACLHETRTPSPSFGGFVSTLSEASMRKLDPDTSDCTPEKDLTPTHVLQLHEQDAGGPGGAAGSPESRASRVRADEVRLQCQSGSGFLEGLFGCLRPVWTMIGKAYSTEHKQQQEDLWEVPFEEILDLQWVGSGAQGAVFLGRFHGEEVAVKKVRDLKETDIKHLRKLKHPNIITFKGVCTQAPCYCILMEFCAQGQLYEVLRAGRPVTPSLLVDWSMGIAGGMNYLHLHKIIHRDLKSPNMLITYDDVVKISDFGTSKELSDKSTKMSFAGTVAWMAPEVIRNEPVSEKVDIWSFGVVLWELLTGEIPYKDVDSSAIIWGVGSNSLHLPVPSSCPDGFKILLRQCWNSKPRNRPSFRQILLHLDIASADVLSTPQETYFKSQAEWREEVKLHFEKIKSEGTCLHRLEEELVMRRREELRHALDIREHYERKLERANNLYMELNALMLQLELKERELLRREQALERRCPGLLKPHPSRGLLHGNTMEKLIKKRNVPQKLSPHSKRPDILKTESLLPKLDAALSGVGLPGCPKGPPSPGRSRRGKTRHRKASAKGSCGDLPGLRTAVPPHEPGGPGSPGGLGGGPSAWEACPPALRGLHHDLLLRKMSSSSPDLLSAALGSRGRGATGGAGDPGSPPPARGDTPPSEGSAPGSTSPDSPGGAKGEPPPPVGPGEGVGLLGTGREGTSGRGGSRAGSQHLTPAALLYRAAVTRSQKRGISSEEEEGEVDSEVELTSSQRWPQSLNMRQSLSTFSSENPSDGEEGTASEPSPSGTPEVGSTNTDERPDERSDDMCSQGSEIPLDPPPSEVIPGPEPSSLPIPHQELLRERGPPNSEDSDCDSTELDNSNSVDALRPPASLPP", "UniProt Q9BQI3, sequence (whole entry, looked up)": "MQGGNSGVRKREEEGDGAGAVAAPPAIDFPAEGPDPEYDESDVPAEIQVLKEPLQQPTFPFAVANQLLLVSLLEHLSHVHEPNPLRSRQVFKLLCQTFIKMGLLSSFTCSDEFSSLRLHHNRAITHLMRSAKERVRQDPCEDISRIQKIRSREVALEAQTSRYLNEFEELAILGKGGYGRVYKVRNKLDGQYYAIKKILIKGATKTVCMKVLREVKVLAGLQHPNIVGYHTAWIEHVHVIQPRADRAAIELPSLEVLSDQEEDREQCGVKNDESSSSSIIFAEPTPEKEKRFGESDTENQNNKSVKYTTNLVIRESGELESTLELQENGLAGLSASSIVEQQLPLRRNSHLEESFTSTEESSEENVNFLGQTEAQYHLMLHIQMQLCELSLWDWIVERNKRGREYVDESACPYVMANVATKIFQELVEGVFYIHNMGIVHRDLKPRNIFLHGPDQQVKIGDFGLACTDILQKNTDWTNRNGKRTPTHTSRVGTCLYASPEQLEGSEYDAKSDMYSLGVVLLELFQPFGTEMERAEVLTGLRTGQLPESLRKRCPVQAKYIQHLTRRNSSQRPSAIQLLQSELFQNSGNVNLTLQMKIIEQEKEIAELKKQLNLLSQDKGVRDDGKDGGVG", "UniProt P51812, sequence (whole entry, looked up)": "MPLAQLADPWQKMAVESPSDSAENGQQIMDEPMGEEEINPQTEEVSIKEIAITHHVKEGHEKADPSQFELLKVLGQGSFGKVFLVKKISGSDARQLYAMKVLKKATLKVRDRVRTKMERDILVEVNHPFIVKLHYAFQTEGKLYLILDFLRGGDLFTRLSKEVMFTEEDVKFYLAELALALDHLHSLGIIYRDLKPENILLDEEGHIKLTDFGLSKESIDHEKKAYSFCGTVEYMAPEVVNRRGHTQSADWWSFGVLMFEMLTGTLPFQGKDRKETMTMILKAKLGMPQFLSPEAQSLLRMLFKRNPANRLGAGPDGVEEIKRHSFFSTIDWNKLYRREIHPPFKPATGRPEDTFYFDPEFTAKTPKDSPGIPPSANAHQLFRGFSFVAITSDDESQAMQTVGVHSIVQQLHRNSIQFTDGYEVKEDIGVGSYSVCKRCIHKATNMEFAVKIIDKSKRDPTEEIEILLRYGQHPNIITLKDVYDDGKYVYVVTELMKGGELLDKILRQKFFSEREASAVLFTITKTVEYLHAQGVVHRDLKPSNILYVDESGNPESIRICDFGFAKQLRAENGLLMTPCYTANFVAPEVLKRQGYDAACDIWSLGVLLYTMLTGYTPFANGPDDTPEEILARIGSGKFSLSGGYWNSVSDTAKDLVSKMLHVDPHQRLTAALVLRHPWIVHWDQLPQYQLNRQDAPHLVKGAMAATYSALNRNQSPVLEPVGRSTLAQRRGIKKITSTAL", "UniProt P29597, sequence (whole entry, looked up)": "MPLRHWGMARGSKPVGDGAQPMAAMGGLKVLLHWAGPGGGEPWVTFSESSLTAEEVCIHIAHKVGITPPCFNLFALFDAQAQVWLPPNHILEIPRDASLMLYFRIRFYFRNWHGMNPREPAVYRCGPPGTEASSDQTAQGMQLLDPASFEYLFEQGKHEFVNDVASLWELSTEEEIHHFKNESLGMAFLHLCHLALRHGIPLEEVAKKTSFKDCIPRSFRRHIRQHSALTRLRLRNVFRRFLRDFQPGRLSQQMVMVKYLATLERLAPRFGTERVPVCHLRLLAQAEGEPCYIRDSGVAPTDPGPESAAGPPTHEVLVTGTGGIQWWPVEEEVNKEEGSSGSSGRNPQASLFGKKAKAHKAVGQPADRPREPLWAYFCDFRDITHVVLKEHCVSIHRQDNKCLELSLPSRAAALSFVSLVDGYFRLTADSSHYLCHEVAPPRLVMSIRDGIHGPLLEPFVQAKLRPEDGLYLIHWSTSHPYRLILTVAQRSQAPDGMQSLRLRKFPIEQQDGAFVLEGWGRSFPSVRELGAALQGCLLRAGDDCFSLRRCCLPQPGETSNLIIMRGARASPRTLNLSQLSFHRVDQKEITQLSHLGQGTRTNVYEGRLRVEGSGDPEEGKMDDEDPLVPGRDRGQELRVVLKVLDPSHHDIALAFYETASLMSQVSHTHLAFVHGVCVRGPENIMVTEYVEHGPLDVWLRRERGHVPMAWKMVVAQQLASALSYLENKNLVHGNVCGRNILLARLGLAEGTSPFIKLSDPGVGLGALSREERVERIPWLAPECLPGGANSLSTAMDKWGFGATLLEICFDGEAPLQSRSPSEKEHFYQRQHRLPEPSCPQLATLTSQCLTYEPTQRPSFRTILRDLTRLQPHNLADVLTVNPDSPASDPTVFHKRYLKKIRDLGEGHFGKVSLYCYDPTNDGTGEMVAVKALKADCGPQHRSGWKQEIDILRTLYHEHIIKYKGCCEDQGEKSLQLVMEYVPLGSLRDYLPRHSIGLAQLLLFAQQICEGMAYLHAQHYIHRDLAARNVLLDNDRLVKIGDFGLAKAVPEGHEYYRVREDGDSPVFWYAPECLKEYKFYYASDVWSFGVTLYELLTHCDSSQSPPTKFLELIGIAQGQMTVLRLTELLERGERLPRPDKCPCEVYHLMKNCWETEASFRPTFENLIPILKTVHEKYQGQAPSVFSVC", "UniProt Q6XUX3, sequence (whole entry, looked up)": "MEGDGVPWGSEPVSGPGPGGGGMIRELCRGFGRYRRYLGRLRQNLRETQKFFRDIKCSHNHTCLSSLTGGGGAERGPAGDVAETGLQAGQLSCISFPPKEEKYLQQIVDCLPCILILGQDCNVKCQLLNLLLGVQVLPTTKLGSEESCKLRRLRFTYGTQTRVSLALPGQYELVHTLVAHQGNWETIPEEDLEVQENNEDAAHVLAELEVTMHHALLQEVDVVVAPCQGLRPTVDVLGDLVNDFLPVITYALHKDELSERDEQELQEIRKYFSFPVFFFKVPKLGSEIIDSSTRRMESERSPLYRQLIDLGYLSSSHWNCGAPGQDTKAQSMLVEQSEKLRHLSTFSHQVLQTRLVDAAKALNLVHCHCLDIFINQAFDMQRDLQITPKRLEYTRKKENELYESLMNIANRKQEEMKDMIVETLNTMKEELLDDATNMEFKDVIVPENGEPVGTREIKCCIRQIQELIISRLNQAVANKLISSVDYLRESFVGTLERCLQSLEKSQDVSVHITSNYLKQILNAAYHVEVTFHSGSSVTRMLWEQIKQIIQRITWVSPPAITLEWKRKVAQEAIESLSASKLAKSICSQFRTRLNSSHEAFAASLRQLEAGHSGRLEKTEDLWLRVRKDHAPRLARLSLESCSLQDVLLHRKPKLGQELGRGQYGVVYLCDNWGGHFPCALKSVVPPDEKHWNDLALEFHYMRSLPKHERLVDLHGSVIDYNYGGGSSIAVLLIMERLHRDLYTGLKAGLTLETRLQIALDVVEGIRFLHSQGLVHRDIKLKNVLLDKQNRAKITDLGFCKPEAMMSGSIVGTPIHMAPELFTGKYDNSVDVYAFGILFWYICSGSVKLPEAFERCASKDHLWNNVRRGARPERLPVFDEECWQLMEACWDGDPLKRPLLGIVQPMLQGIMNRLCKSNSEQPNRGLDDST"}
{"data": "Series 1", "Structure (SMILES)": "O=C(O)[C@H]1[C@H](Cn2nnc3ccccc3c2=O)CC[C@@H]1C(=O)c1ccc(OCCC2CCOCC2)cc1", "method": "competition with immobilised ligand", "tested at": "1 µM"}
{"target": "Non-receptor tyrosine-protein kinase TYK2, JH2 (TYK2, Homo sapiens, UniProt P29597)", "assay": "cell-free assay", "remaining binding [%]": 100}
{"target": "Ribosomal protein S6 kinase alpha-3, C-terminal kinase domain (RPS6KA3, Homo sapiens, UniProt P51812)", "assay": "cell-free assay", "remaining binding [%]": 83}
{"target": "Mitogen-activated protein kinase kinase kinase 12 (MAP3K12, Homo sapiens, UniProt Q12852)", "assay": "cell-free assay", "remaining binding [%]": 88}
{"target": "Mitogen-activated protein kinase kinase kinase 19 (MAP3K19, Homo sapiens, UniProt Q56UN5)", "assay": "cell-free assay", "remaining binding [%]": 78}
{"target": "Tyrosine-protein kinase JAK3, JH1 (JAK3, Homo sapiens, UniProt P52333)", "assay": "cell-free assay", "remaining binding [%]": 100}
{"target": "Receptor-type tyrosine-protein kinase FLT3 (FLT3, Homo sapiens, UniProt P36888, D835V/ITD)", "assay": "cell-free assay", "remaining binding [%]": 87}
{"target": "G protein-coupled receptor kinase 4 (GRK4, Homo sapiens, UniProt P32298)", "assay": "cell-free assay", "remaining binding [%]": 82}
{"target": "Phosphatidylinositol 5-phosphate 4-kinase type-2 gamma (PIP4K2C, Homo sapiens, UniProt Q8TBX8)", "assay": "cell-free assay", "remaining binding [%]": 100}
{"target": "Myosin-IIIb (MYO3B, Homo sapiens, UniProt Q8WXR4)", "assay": "binding", "remaining binding [%]": 69}
{"target": "Serine/threonine-protein kinase OSR1 (OXSR1, Homo sapiens, UniProt O95747)", "assay": "cell-free assay", "remaining binding [%]": 77}
{"target": "Eukaryotic translation initiation factor 2-alpha kinase 1 (EIF2AK1, Homo sapiens, UniProt Q9BQI3)", "assay": "cell-free assay", "remaining binding [%]": 78}
{"target": "Serine/threonine-protein kinase haspin (HASPIN, Homo sapiens, UniProt Q8TF76)", "assay": "cell-free assay", "remaining binding [%]": 84}
{"target": "Dual serine/threonine and tyrosine protein kinase (DSTYK, Homo sapiens, UniProt Q6XUX3)", "assay": "cell-free assay", "remaining binding [%]": 100}
{"data": "Series 2", "species": "mouse", "medium": "microsomes or S9", "tested at": "2 µM", "time": "0.5 h"}
{"SMILES": "CCc1ccc(/C=N/n2c(C)nnc2-n2nc(C)cc2C)cc1", "remaining compound": "0.0477%"}
{"SMILES": "COc1cc(OC)cc(N2CCC(N(C)C(=O)Cc3c(N)nc(C)[nH]c3=O)C2)c1 (stereo not drawn)", "remaining compound": "71.1%"}
{"SMILES": "Cc1c(Cl)cccc1-c1ccc(CNCCN(C)C)o1", "remaining compound": "1.8%"}
{"SMILES": "Cn1ncc(N2CC(O)CC2C2CCCCC2)c(Br)c1=O (stereo not drawn)", "remaining compound": "30.1%"}
{"SMILES": "CCOc1ccc(OCC)c(NC(=O)c2cc(S(=O)(=O)N3CCOCC3)cn2C)c1", "remaining compound": "22.8%"}
{"SMILES": "COc1cc(=O)n(-c2ccccc2)cc1C(=O)N1CCC(N2CCc3ccccc3C2)C1 (stereo not drawn)", "remaining compound": "73.6%"}
{"SMILES": "COc1cc(C2CC(=O)Oc3cc4c(c(OC)c32)C(=O)O[C@@H](C)CCCC(=O)CCC/C=C/4)cc2c1OCCO2 (stereo partly drawn)", "remaining compound": "9.22%"}
{"SMILES": "Brc1ccc(OCCn2cc(/C=N/n3cnnc3)c3ccccc32)cc1", "remaining compound": "44.2%"}
{"SMILES": "CCOC(=O)C1CCN(c2nccc3c2OC(C)(C)C=C3)CC1", "remaining compound": "0.189%"}
{"SMILES": "N#Cc1ccccc1-c1nc2cc(Cl)ccc2c2ccnn12", "remaining compound": "0.689%"}
{"SMILES": "CC(C)C(C)NC(=O)N(C)CC(C)(C)CN1CCOCC1 (stereo not drawn)", "remaining compound": "0.946%"}
{"data": "Series 3", "target": "G protein-coupled receptor kinase 3 (GRK3, Homo sapiens, UniProt P35626)", "effect on": "enzyme activity", "action": "inhibitor", "tested at": "0.5 µM", "baseline": "control", "Residues (P35626 1-688)": "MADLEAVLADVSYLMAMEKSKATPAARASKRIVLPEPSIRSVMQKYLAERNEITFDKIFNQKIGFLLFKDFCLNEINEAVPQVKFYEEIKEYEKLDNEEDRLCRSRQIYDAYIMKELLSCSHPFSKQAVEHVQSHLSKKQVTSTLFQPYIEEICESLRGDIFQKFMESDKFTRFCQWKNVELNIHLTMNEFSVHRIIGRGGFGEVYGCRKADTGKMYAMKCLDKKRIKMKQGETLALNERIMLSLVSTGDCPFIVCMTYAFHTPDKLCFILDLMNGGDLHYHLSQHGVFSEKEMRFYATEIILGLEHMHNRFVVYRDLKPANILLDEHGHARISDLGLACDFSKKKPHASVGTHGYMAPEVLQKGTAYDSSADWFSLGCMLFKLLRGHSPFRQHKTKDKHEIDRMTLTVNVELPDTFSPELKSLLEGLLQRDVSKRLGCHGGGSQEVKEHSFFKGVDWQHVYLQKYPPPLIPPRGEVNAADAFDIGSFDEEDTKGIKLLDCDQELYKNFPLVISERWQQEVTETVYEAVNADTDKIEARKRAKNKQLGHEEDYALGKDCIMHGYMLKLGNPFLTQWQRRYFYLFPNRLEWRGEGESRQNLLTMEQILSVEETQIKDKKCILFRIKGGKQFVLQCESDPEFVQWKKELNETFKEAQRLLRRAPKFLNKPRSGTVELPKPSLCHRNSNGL"}
{"SMILES": "CCN(CC)CCNC(=O)c1c(C)[nH]c(/C=C2\\C(=O)Nc3ccc(F)cc32)c1C", "remaining activity": "94.8%"}
{"SMILES": "N#C/C(=C\\c1ccc(O)c(O)c1)C(=O)NCc1ccccc1", "remaining activity": "91.4%"}
{"SMILES": "O=C1c2ccccc2-c2n[nH]c3cccc1c23", "remaining activity": "100%"}
{"SMILES": "Cc1cc2ncc(-c3ccccc3)nc2cc1C", "remaining activity": "87.4%"}
{"SMILES": "O=c1cc(-c2cccc3c2Sc2ccccc2S3)oc(N2CCOCC2)c1", "remaining activity": "100%"}
{"SMILES": "O=C(Nc1cccc(Nc2nccc(Nc3cccc(C(F)(F)F)c3)n2)c1)C1CC1", "remaining activity": "93.1%"}
{"SMILES": "COc1cc2c(cc1OC)-c1[nH]nc(Nc3cccc(F)c3)c1C2", "remaining activity": "98.4%"}
{"SMILES": "Nc1cccc(-c2cc3c(Oc4cccc(O)c4)ncnc3[nH]2)c1", "remaining activity": "100%"}
{"SMILES": "CN(C)C[C@H]1CCn2c(c(C3=C(c4cn(C)c5ccccc45)C(=O)NC3=O)c3ccccc32)C1", "remaining activity": "102%"}
{"SMILES": "N#Cc1c(NC(=O)c2cccc3ccccc23)sc2c1CCCC2", "remaining activity": "106%"}
{"SMILES": "CN([C@@H](Cc1ccc(OS(=O)(=O)c2cccc3cnccc23)cc1)C(=O)N1CCN(c2ccccc2)CC1)S(=O)(=O)c1cccc2cnccc12", "remaining activity": "113%"}
{"SMILES": "O=C(NC(NC(=S)Nc1ccc(F)c([N+](=O)[O-])c1)C(Cl)(Cl)Cl)C(c1ccccc1)c1ccccc1 (stereo not drawn)", "remaining activity": "98.3%"}
{"SMILES": "O=C1C(Cl)=C(N2C(=O)CCC2=O)C(=O)c2ccccc21", "remaining activity": "103%"}
{"SMILES": "c1ccc(-c2[nH]ncc2-c2ccnc3ccccc23)nc1", "remaining activity": "103%"}
{"SMILES": "Cn1nc2c3c(cccc31)C(=O)c1ccccc1-2", "remaining activity": "93.6%"}
{"SMILES": "COc1cc2ncnc(Nc3cccc(Cl)c3)c2cc1OC", "remaining activity": "99.9%"}
{"SMILES": "Cc1cn(-c2cc(NC(=O)c3ccc(C)c(Nc4nccc(-c5cccnc5)n4)c3)cc(C(F)(F)F)c2)cn1", "remaining activity": "95.1%"}
{"SMILES": "CCN(CC)C(=O)c1ccc(Nc2nc(OCC3CCCCC3)c3[nH]cnc3n2)cc1", "remaining activity": "92.7%"}
{"SMILES": "Cc1nc2cc3nc(-c4cccs4)cnc3cc2n1C", "remaining activity": "99.2%"}
{"SMILES": "C[C@@H]1CCN(C(=O)CC#N)C[C@@H]1N(C)c1ncnc2[nH]ccc12", "remaining activity": "99.2%"}
{"SMILES": "Ic1cccc(CSc2nnc(-c3ccncc3)o2)c1", "remaining activity": "103%"}
{"SMILES": "CCOc1nc(NC(=O)Cc2cc(OC)ccc2OC)cc(N)c1C#N", "remaining activity": "106%"}
{"SMILES": "CCN(CC)CCNC(=O)c1c(C)[nH]c(/C=C2\\C(=O)Nc3ccc(Cl)cc32)c1C", "remaining activity": "97.8%"}
{"SMILES": "c1ccc(-c2cnc(Nc3ccc(OCCN4CCCC4)cc3)s2)cc1", "remaining activity": "103%"}
{"SMILES": "COc1cc2ncnc(Nc3ccc(O)c(Br)c3)c2cc1OC", "remaining activity": "103%"}
{"data": "Series 4", "Structure (SMILES)": "CCOc1ccc(Nc2c3c(nc4ccccc24)CCC3)cc1", "organism": "Leishmania donovani", "strain": "DD8"}
{"assay": "parasite killing", "system": "promastigotes", "conditions": "66.66 µM, 72 h", "inhibition": "100%"}
{"assay": "parasite viability, resazurin", "system": "promastigotes", "conditions": "1.66 µM", "inhibition": "38% and 45% and 40% and 50% and 41% and 46%"}
{"assay": "parasite killing", "system": "promastigotes", "conditions": "3.33 µM, 72 h", "inhibition": "61% and 74%"}
{"assay": "parasite killing", "system": "intracellular amastigotes", "conditions": "20 µM, 96 h", "inhibition": "100%"}
{"assay": "parasite killing", "system": "intracellular amastigotes", "conditions": "20 µM, 48 h", "inhibition": "100%"}
{"assay": "parasite killing", "system": "promastigotes", "conditions": "0.66 µM, 96 h", "inhibition": "24% and 37% and 20%"}
{"assay": "parasite killing", "system": "intracellular amastigotes", "conditions": "80 µM, 96 h", "inhibition": "100%"}
{"assay": "parasite killing", "system": "intracellular amastigotes", "conditions": "2 µM, 96 h", "inhibition": "81% and 83% and 84%"}
{"note": "For quick reference, copied from above (series 3):"}
{"SMILES": "c1ccc(-c2cnc(Nc3ccc(OCCN4CCCC4)cc3)s2)cc1", "remaining activity": "103%"}
{"SMILES": "c1ccc(-c2[nH]ncc2-c2ccnc3ccccc23)nc1", "remaining activity": "103%"}
{"SMILES": "O=C1c2ccccc2-c2n[nH]c3cccc1c23", "remaining activity": "100%"}
{"SMILES": "Cc1cn(-c2cc(NC(=O)c3ccc(C)c(Nc4nccc(-c5cccnc5)n4)c3)cc(C(F)(F)F)c2)cn1", "remaining activity": "95.1%"}
